Assay results gathered from unrelated publications.
A part holds a random share of what one study measured. Values joined by “and” are separate records of one study, mostly repeats; a detail may differ. In brackets after ≈: the same amount, converted by molar mass.
Sequence of UniProt Q9NWZ3 (whole entry, looked up): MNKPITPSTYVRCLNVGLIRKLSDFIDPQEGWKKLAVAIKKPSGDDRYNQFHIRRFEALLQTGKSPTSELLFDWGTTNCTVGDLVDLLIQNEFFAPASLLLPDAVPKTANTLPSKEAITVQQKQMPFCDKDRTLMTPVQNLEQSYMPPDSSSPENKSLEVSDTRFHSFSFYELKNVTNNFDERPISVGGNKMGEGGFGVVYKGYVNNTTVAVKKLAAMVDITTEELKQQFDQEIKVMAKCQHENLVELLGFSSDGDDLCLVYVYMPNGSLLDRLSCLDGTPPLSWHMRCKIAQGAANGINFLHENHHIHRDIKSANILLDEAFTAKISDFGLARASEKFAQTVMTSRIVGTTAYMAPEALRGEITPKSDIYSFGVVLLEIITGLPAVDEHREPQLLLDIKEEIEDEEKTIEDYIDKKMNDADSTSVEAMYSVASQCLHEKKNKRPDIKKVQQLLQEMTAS

Block 1
Compound: O=C(O)C1(O)Oc2cc(Br)ccc2N(Cc2ccccc2)C1=O (stereo not drawn)
Measurement: inhibition
Arabidopsis thaliana; root length; Col-0, seedlings; 3.125 µg/mL; baseline: water control: 10.6%
Arabidopsis thaliana; root length; Col-0; 6.25 µg/mL, 7 days, seed germination, dark: 19.8%
Arabidopsis thaliana; root length; Col-0; 3.13 µg/mL, 7 days, seed germination, dark: 10.6%
Arabidopsis thaliana; root length; Col-0; 50.0 µg/mL, 7 days, seed germination, dark: 59.6%
Arabidopsis thaliana; hypocotyl length; Col-0, seedlings; 50 µg/mL: 35.3%
Alopecurus japonicus; fresh weight; 150 g ai/ha, pre-emergence treatment: 77.2% and 75.4% and 77.5%
Arabidopsis thaliana; hypocotyl length; Col-0; 6.25 µg/mL, 7 days, seed germination, dark: 3%
Arabidopsis thaliana; root length; Col-0, seedlings; 100 µg/mL: 89.7%
Arabidopsis thaliana; hypocotyl length; Col-0; 50.0 µg/mL, 7 days, seed germination, dark: 35.3%
Arabidopsis thaliana; hypocotyl length; Col-0, seedlings; 25 µg/mL: 18.2%
Triticum aestivum; fresh weight; soil surface spray, 150 g ai/ha, 21 days, pre-emergence crop safety: 8.5% and 6.2% and 7.8%
Arabidopsis thaliana; hypocotyl length; Col-0, seedlings; 6.25 µg/mL: 3.01%
Eclipta prostrata; fresh weight; 150 g ai/ha, post-emergence treatment: 66% and 65.1% and 62.7%
Arabidopsis thaliana; root length; Col-0, seedlings; 12.5 µg/mL: 28.1%
Alopecurus aequalis; fresh weight; 150 g ai/ha, pre-emergence treatment: 90.7% and 84.6% and 85.7%
Oryza sativa; fresh weight; soil surface spray, 150 g ai/ha, 21 days, pre-emergence crop safety: 5% and 5.1%

Block 2
Compound: CCN(CC)CC(=O)N1CCN(c2nc(NCc3nc4cc(Cl)c(Cl)cc4[nH]3)c3ncn(CC)c3n2)CC1
Mode: inhibitor
Measurement: inhibition
CDK7: Cyclin-dependent kinase 7 (CDK7, Homo sapiens, UniProt P50613)
Sequence of UniProt P50613 (whole entry, looked up): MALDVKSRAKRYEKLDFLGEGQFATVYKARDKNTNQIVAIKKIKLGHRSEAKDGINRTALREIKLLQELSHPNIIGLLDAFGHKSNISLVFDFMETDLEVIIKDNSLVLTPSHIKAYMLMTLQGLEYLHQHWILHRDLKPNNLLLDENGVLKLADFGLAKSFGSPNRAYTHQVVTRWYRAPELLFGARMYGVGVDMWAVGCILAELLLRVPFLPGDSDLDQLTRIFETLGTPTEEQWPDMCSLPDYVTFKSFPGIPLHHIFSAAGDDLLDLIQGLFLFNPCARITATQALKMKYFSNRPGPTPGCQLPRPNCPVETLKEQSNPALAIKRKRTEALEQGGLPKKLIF
CDK12 with cyclin K: Cyclin-dependent kinase 12, with cyclin K (CDK12, Homo sapiens, UniProt Q9NYV4)
Sequence of UniProt Q9NYV4 (whole entry, looked up): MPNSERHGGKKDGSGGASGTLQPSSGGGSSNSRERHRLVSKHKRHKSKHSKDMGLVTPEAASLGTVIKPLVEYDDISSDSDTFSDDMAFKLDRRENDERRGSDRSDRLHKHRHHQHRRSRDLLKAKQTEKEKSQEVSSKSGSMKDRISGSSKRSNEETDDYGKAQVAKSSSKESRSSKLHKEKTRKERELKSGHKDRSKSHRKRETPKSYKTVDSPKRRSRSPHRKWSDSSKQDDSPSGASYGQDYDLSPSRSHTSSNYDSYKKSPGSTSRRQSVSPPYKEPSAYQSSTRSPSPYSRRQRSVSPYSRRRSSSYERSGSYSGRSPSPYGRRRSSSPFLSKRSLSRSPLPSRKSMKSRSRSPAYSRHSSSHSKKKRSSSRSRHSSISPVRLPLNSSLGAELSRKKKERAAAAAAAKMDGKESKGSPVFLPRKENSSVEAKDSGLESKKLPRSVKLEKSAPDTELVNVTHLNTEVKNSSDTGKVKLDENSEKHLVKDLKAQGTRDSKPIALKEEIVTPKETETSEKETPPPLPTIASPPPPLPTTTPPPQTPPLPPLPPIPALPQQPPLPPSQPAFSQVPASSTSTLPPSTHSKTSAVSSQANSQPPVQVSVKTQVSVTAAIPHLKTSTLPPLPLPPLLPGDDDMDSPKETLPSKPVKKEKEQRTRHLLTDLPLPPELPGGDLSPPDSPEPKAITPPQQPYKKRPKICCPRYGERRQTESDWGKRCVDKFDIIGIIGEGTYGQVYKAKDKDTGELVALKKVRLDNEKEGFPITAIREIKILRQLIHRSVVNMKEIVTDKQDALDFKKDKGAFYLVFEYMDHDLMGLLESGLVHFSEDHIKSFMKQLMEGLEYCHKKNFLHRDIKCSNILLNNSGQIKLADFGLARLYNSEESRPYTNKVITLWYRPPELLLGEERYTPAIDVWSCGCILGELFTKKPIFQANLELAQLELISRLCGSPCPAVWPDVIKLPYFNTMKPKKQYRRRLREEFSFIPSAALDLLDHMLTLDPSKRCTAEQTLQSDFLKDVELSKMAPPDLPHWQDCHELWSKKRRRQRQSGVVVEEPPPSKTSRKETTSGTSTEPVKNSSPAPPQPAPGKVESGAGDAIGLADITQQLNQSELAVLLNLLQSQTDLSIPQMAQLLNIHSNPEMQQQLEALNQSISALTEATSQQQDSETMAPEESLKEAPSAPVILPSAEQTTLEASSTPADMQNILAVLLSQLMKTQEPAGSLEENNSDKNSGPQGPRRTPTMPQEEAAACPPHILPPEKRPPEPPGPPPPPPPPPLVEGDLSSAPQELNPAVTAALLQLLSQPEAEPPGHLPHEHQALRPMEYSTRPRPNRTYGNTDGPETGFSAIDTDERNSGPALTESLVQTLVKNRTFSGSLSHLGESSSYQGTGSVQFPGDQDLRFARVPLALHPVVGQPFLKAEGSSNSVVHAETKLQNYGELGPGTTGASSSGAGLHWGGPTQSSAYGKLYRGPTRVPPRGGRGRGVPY
CDK9: Cyclin-dependent kinase 9 (CDK9, Homo sapiens, UniProt P50750)
Sequence of UniProt P50750 (whole entry, looked up): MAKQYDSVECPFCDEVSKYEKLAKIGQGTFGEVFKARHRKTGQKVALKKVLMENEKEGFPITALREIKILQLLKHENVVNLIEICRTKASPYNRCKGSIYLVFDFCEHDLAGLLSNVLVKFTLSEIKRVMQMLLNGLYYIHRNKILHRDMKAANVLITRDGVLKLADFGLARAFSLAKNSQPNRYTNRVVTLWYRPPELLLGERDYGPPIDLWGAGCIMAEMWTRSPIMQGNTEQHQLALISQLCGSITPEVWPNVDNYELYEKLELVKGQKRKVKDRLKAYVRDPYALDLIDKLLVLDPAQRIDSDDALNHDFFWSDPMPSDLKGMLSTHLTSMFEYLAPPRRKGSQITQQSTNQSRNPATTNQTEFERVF
CDK13: Cyclin-dependent kinase 13 (CDK13, Homo sapiens, UniProt Q14004)
Sequence of UniProt Q14004 (whole entry, looked up): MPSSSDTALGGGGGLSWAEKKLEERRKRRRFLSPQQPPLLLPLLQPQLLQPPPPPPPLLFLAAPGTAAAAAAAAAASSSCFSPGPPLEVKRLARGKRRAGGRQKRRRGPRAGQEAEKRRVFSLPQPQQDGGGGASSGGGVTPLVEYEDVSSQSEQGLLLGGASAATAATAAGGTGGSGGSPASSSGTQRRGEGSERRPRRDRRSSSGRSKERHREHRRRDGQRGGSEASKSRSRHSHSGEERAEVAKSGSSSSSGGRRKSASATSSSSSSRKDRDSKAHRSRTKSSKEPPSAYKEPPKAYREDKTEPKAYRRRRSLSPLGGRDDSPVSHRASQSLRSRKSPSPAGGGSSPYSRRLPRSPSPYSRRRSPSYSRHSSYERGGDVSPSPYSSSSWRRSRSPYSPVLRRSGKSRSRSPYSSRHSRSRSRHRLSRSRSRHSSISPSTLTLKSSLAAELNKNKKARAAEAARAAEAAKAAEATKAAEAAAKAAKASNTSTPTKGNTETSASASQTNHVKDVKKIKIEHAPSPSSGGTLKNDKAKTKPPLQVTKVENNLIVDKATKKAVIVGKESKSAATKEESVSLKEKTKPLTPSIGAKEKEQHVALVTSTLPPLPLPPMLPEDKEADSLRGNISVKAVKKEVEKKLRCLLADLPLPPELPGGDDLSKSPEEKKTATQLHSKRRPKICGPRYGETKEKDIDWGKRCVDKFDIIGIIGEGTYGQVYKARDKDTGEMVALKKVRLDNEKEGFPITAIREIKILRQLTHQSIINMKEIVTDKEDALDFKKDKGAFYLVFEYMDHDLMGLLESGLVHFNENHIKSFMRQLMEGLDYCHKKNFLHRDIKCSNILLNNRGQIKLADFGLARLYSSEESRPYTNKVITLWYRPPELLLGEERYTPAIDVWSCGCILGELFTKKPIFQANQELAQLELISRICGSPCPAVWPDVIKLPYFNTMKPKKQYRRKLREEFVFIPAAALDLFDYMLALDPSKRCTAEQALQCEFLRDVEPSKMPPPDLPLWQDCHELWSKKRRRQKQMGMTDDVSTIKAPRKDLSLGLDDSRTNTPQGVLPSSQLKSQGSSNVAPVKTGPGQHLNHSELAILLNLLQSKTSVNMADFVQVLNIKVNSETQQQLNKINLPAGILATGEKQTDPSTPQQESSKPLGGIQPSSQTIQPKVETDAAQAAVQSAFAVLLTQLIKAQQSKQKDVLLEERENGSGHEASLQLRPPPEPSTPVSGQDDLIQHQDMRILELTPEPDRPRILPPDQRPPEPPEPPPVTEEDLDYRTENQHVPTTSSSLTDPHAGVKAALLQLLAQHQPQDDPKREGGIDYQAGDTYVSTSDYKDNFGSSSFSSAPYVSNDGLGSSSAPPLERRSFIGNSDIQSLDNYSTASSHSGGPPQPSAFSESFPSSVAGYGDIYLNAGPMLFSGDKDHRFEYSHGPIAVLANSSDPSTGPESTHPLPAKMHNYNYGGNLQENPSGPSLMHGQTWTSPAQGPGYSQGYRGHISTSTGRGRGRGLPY
CDK2 (Homo sapiens, UniProt P24941); enzyme activity, ADP detection; 1.111 µM: -5.1%
CDK7; enzyme activity, ADP detection; 4.6 nM: 18.8%
CDK12 with cyclin K; kinase activity, ADP-Glo; 0.0741 µM: 20%
CDK9; enzyme activity, ADP detection; 41.2 nM: -1.2%
CDK9; enzyme activity, ADP detection; 3.333 µM: 58.7%
CDK12 with cyclin K; kinase activity, ADP-Glo; 0.2222 µM: 43.1%
CDK12 with cyclin K; kinase activity, ADP-Glo; 0.6667 µM: 67.3%
CDK13; enzyme activity, ADP detection; 4.6 nM: -9.5%
CDK9; enzyme activity, ADP detection; 10 µM: 87.7%
CDK12 with cyclin K; kinase activity, ADP-Glo; 2 µM: 82.6%
CDK7; enzyme activity, ADP detection; 0.1235 µM: 31.6%
CDK12 with cyclin K; kinase activity, ADP-Glo; 0.0001 µM: 3.1%
CDK13; enzyme activity, ADP detection; 1.111 µM: 60.4%

Block 3
SMILES: Cc1ccc(O)c(C)c1-c1cnc2[nH]c(-c3cnc(N4CCC5(CC4)CC(N4CCN(c6ccc(NC7CCC(=O)NC7=O)cc6F)CC4)CO5)nc3)cc2c1C#N (stereo not drawn)
Target: Membrane-associated tyrosine- and threonine-specific cdc2-inhibitory kinase (PKMYT1, Homo sapiens, UniProt Q99640)
Measurement: degradation
Construct (Q99640 1-499): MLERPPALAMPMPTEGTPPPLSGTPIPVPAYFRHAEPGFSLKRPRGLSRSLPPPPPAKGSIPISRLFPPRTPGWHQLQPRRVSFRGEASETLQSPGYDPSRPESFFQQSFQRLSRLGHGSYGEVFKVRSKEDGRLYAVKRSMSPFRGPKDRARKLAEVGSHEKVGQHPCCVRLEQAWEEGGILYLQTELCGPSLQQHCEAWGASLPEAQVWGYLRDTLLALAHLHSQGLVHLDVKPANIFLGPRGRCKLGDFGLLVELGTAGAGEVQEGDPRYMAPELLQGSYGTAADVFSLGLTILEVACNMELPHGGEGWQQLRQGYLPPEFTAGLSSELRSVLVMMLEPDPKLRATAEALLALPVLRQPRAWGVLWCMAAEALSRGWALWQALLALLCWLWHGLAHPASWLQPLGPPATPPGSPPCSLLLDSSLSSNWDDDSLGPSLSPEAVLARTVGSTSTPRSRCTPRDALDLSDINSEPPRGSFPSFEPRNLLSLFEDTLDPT
MDA-MB-157; 0.15 nM: 12.3%
HuCCT-1; 1.37 nM: 63.7%
HCC1599; 0.05 nM: 19.3%
MDA-MB-157; 111.11 nM: 66.6%
HuCCT-1; 111.11 nM: 55.1%

Block 4
Structure (SMILES): CCN1/C(=C/C=C2\CCCC(/C=C/C3=[N+](CC)c4ccccc4C3(C)C)=C2NCCCCCCCCN2CCC(Nc3nc4ccccc4n3Cc3ccc(F)cc3)CC2)C(C)(C)c2ccccc21
Cell line: U-87 MG
Tested at: concentration not given
Baseline: DMSO
Measurement: log2 fold change
item: ALDH3B1 mRNA: -1.54
item: ADD3 mRNA: -1.05
item: BEST1 mRNA: 1.25
item: SLC33A1 mRNA: 1.26
item: EDNRA mRNA: 1
item: KIF22 mRNA: -1.63
item: B3GLCT mRNA: -0.857
item: WNT3 mRNA: -1.08
item: PCYOX1L mRNA: -1.34
item: AKR1C1 mRNA: 1.02
item: SRD5A2 mRNA: 2.46
item: UCP2 mRNA: -1.69

Block 5
Target: E3 ubiquitin-protein ligase NEDD4, HECT domain (Homo sapiens, UniProt P46934)
Effect on: enzyme activity
Mode: inhibitor
Technique: Ub-TR-FRET
Medium: HECT domain
Tested at: 0.1372 µM
Reading: higher = more chain formation
Measurement: ubiquitin chain formation AUC
Construct (P46934 938-1319, limits assumed): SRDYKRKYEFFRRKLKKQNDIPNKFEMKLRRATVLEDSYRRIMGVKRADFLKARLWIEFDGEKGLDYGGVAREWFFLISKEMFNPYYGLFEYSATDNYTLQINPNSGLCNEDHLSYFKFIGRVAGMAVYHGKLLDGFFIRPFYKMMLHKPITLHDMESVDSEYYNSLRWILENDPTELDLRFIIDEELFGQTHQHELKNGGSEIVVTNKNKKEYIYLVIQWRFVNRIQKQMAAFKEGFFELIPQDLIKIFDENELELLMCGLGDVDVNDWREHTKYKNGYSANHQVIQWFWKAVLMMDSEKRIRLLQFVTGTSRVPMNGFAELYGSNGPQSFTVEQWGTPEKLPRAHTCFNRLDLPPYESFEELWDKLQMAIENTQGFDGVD
CCOC(=O)/C=C/CNCCCCN1c2ccccc2C(=O)N(C)c2ccc(Cl)cc21.O=C(O)/C=C\C(=O)O: 95300 a.u. and 96000 a.u. and 95800 a.u.
CNC(=O)/C=C/CNCCCCN1c2ccccc2CCc2ccc(Cl)cc21.Cl: 68200 a.u. and 70000 a.u. and 85900 a.u. and 71300 a.u. and 87400 a.u.
CCOC(=O)/C=C/CN(CC)CCCCN1c2ccccc2CCc2ccc(Cl)cc21.O=C(O)/C=C\C(=O)O: 89800 a.u. and 90800 a.u. and 87900 a.u. and 96000 a.u. and 98300 a.u. and 93200 a.u.
CCOC(=O)/C=C/CNCCCCN1c2ccccc2COc2ccc(Cl)cc21.O=C(O)/C=C\C(=O)O: 82600 a.u. and 84700 a.u.
CCOC(=O)/C=C/CNCCCN1c2ccccc2CCc2ccc(Cl)cc21: 45600 a.u. and 43800 a.u. and 43500 a.u.
CCOC(=O)/C=C/CNCCCCN1c2cc(Cl)ccc2C(=O)N(C)c2ccccc21.O=C(O)/C=C\C(=O)O: 89800 a.u. and 88500 a.u. and 88900 a.u.
CN(C)C/C=C/C(=O)NCCCN1c2ccccc2CCc2ccc(Cl)cc21: 130000 a.u. and 133000 a.u. and 129000 a.u.
Cl.NC(=O)/C=C/CNCCCN1c2ccccc2CCc2ccc(Cl)cc21: 139000 a.u.
N#C/C=C/CNCCCCN1c2ccccc2CCc2ccc(Cl)cc21.O=C(O)/C=C\C(=O)O: 81900 a.u. and 72400 a.u. and 82300 a.u. and 82500 a.u. and 68800 a.u. and 71000 a.u.

Block 6
SMILES: Cc1ncsc1-c1ccc(C(CO)NC(=O)C2CC(O)CN2C(=O)C(C(C)C)n2cc(-c3ccc(COc4c(-c5c(C)c(F)cc6[nH]ncc56)c(C5CC5)cc5c(N6CC7CC6CN7)nc(OC6CCOCC6)nc45)cc3)nn2)cc1 (stereo not drawn)
Route: intravenous
Measurement: concentration
male Balb/c nu/nu mouse (PK-59 xenograft), plasma; 30 mg/kg, 24 h: 41.7 ng/mL
male Balb/c nu/nu mouse (PK-59 xenograft), pancreas; 10 mg/kg, 6 h: 189 ng/g
male Balb/c nu/nu mouse (PK-59 xenograft), pancreas; 30 mg/kg, 2 h: 1060 ng/g
mouse (PK-59 xenograft), pancreas; 30 mg/kg, 72 h: 100 ng/g
mouse, PK-59 xenograft, tumor; 30 mg/kg, 72 h: 900 ng/g and 1110 ng/g
male Balb/c nu/nu mouse, PK-59 xenograft, plasma; 30 mg/kg, 144 h: 1.38 ng/mL and 1.88 ng/mL and 3.48 ng/mL
mouse, PK-59 xenograft, tumor; 30 mg/kg, 48 h: 983 ng/g and 599 ng/g
male Balb/c nu/nu mouse, PK-59 xenograft, tumor; 10 mg/kg, 24 h: 214 ng/g and 283 ng/g

Block 7
SMILES: CNc1ncc2cc(-c3cc(OC)cc(OC)c3Cl)c(=O)n(CCc3ccc(NC(=O)C(C#N)=CC(C)(C)N4CCOCC4)cc3)c2n1
Effect on: kinase activity
Measurement: inhibition
LYN isoform B: Tyrosine-protein kinase Lyn, isoform B (LYN, Homo sapiens, UniProt P07948)
Sequence of UniProt P07948 (whole entry, looked up): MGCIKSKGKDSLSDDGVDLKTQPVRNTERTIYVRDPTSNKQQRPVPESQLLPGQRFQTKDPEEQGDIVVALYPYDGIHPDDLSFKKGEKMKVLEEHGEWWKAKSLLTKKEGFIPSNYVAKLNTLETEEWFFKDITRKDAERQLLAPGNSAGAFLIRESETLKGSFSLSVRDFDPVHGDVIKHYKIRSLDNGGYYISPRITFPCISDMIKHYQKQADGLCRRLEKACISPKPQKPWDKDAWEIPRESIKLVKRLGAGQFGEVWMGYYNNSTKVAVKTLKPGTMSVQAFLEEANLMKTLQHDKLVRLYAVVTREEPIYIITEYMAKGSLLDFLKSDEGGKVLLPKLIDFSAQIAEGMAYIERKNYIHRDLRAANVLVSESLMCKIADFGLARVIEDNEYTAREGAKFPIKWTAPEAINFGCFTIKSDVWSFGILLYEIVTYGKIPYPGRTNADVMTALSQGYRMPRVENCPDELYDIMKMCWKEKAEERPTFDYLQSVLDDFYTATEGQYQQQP
IRAK4 (Homo sapiens, UniProt Q9NWZ3); 0.1 µM: -1%
Cyclin-dependent kinase 9, with cyclin T1 (CDK9, Homo sapiens, UniProt P50750); 0.1 µM: 3%
HIPK3 (Homo sapiens, UniProt Q9H422); 0.1 µM: 3%
SGK1 (Homo sapiens, UniProt O00141); 1 µM: 6%
HASPIN (Homo sapiens, UniProt Q8TF76); 0.1 µM: -3%
LYN isoform B; 0.1 µM: 1%
LYN isoform B; 1 µM: 21%
CHUK (Homo sapiens, UniProt O15111); 1 µM: 0%
GSK3B (Homo sapiens, UniProt P49841); 1 µM: -13%
ROS1 (Homo sapiens, UniProt P08922); 0.1 µM: -1%
BTK (Homo sapiens, UniProt Q06187); 1 µM: -15%
RPS6KA6 (Homo sapiens, UniProt Q9UK32); 1 µM: 4%
PKN2 (Homo sapiens, UniProt Q16513); 0.1 µM: 0%
PTK2 (Homo sapiens, UniProt Q05397); 0.1 µM: 5%
ABL1 (Homo sapiens, UniProt P00519); 1 µM: 3%

Block 8
Structure (SMILES): Ic1ccc(Nc2nc(NCCN3CCOCC3)nc(N3CC4CC3CO4)n2)cc1 (stereo not drawn)
Cell line: Gaucher fibroblasts L444P/L444P
Technique: 4-MUG hydrolysis, cell lysate
Measurement: GCase activity
10 µM, 72 h; baseline: vehicle: 107%
10 µM; baseline: DMSO: 105% and 107% and 110% and 103% and 113% and 112%
0.1 µM, 72 h; baseline: vehicle: 100%
0.1 µM; baseline: DMSO: 99.2% and 106% and 102% and 97.4% and 98.9% and 94.2%
1 µM; baseline: DMSO: 104% and 100% and 95.5% and 96.5% and 98.2% and 98%

Further values, each from its own experiment
CC[C@@]1(c2cccc(C(F)(F)F)c2)C2=C(Nc3n[nH]cc31)[C@H](F)C(C)(C)CC2=O (single isomer, unassigned)
solubility (aqueous buffer; pH 6.8): 22.6 µg/mL (≈ 55.5 µM)

Some of these lines once more (block 5):
Cl.NC(=O)/C=C/CNCCCN1c2ccccc2CCc2ccc(Cl)cc21: 139000 a.u.
CCOC(=O)/C=C/CN(CC)CCCCN1c2ccccc2CCc2ccc(Cl)cc21.O=C(O)/C=C\C(=O)O: 89800 a.u. and 90800 a.u. and 87900 a.u. and 96000 a.u. and 98300 a.u. and 93200 a.u.
CNC(=O)/C=C/CNCCCCN1c2ccccc2CCc2ccc(Cl)cc21.Cl: 68200 a.u. and 70000 a.u. and 85900 a.u. and 71300 a.u. and 87400 a.u.
CCOC(=O)/C=C/CNCCCCN1c2ccccc2C(=O)N(C)c2ccc(Cl)cc21.O=C(O)/C=C\C(=O)O: 95300 a.u. and 96000 a.u. and 95800 a.u.
CCOC(=O)/C=C/CNCCCCN1c2ccccc2COc2ccc(Cl)cc21.O=C(O)/C=C\C(=O)O: 82600 a.u. and 84700 a.u.
CCOC(=O)/C=C/CNCCCN1c2ccccc2CCc2ccc(Cl)cc21: 45600 a.u. and 43800 a.u. and 43500 a.u.
